Published values of several laboratories.
Protocols differ between the studies behind these lines. ± gives the spread as reported.

NC(=O)c1cnc2[nH]ccc2c1N[C@@H]1[C@@H]2CC3C[C@H]1C[C@@](O)(C3)C2
AUC(0-inf) (healthy Japanese men, plasma; oral, 200 mg, single dose fasted): 2520 ng·h/mL

CC(C)=CCC[C@](C)(O[C@@H]1O[C@H](CO)[C@@H](O)[C@H](O)[C@H]1O)[C@H]1CC[C@]2(C)[C@@H]1[C@H](O)C[C@@H]1[C@@]3(C)CC[C@H](O[C@@H]4O[C@H](CO)[C@@H](O)[C@H](O)[C@H]4O)C(C)(C)[C@@H]3CC[C@]12C
AUC(0-inf) (LC-MS/MS; healthy female volunteers, serum; oral, 3 g red ginseng): 9.28 ± 3.71 ng·h/mL

CC(C)(Sc1ccncc1-c1ccc(C#N)c2ccccc12)C(=O)O
AUC(0-inf) (healthy Japanese male subjects, plasma; oral, 2.5 mg single dose, day 6, fed, geometric mean): 39.2 ng·h/mL

COc1cccc(N2CCN(C3=Nc4c(F)cccc4[C@H](CC(=O)O)N3c3cc(C(F)(F)F)ccc3OC)CC2)c1
AUC(0-inf) (UHPLC-MS/MS; healthy women, plasma; intravenous infusion, 720 mg single dose, 60 min infusion, HPβCD formulation): 168000 ± 23200 ng·h/mL

COc1ccc2c3c1O[C@H]1C[C@@H](OC(=O)c4ccccc4)C=C[C@@]31CCN(C)C2
AUC(0-inf) (healthy young men, plasma; intranasal, 5.5 mg, single dose): 20 ng·h/mL

Nc1cccc2c1C(=O)N(C1CCC(=O)NC1=O)C2=O (stereo not drawn)
AUC(0-inf) (healthy male smokers, plasma; oral, 4 mg, single dose, about 25 cigarettes per day, geometric mean): 463 ng·h/mL

CNC(=O)c1ccc(-c2cnc3ncc(Cc4ccc5ncccc5c4)n3n2)cc1F
AUC(0-inf) (severe hepatic impairment; oral, 200 mg, mean): 8530 ng·h/mL

CCOc1ccc(Cc2cc([C@@H]3S[C@H](CO)[C@@H](O)[C@H](O)[C@H]3O)c(OC)cc2C)cc1
AUC(0-inf) (Japanese type 2 diabetes patients, plasma; oral, 5 mg single dose, eGFR 60-89 mL/min/1.73 m^2): 2070 ± 395 ng·h/mL

COc1cc(OC)c(/C=C/S(=O)(=O)Cc2ccc(OC)c(NCC(=O)O)c2)c(OC)c1
AUC(0-inf) (cancer patients, phase I, plasma; oral, 700 mg twice daily, day 21 cycle 1): 4960 ± 1710 ng·h/mL

CN1C(=O)[C@@H](NC(=O)c2nnc(Cc3ccccc3)[nH]2)COc2ccccc21
AUC(0-inf) (healthy men, plasma; oral, 60 mg twice daily, day 1, geometric mean): 4420 ng·h/mL

CC(C)=CCC[C@](C)(O[C@@H]1O[C@H](CO)[C@@H](O)[C@H](O)[C@H]1O)[C@H]1CC[C@]2(C)[C@@H]1[C@H](O)C[C@@H]1[C@@]3(C)CC[C@H](O[C@@H]4O[C@H](CO)[C@@H](O)[C@H](O)[C@H]4O[C@@H]4O[C@H](CO)[C@@H](O)[C@H](O)[C@H]4O)C(C)(C)[C@@H]3CC[C@]12C
AUC(0-inf) (LC-MS/MS; healthy male volunteers, serum; oral, 3 g fermented red ginseng): 191 ± 102 ng·h/mL

O=C(NC[C@H](O)CO)c1ccncc1Nc1ccc(I)cc1F
AUC(0-inf) (patients, plasma; oral, 60 mg single dose, day 1, median, with: FOLFIRI): 1430 ng·h/mL
